Assay results from different studies.
Values joined by “and” are separate records of one study, mostly repeats; a detail may differ. Numbers after ± are the reported error.
Beta-lactamase CTX-M-27: Beta-lactamase CTX-M-27 (Escherichia coli, UniProt Q840M4)
PIN1: Peptidyl-prolyl cis-trans isomerase NIMA-interacting 1 (PIN1, Homo sapiens, UniProt Q13526)
UniProt Q13526, sequence (whole entry, looked up): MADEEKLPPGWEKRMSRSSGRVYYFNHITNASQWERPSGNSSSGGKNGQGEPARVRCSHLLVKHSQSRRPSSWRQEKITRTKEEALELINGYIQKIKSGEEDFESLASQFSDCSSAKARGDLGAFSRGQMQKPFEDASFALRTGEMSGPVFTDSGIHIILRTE
UniProt Q9DC04, sequence (whole entry, unmodified, looked up): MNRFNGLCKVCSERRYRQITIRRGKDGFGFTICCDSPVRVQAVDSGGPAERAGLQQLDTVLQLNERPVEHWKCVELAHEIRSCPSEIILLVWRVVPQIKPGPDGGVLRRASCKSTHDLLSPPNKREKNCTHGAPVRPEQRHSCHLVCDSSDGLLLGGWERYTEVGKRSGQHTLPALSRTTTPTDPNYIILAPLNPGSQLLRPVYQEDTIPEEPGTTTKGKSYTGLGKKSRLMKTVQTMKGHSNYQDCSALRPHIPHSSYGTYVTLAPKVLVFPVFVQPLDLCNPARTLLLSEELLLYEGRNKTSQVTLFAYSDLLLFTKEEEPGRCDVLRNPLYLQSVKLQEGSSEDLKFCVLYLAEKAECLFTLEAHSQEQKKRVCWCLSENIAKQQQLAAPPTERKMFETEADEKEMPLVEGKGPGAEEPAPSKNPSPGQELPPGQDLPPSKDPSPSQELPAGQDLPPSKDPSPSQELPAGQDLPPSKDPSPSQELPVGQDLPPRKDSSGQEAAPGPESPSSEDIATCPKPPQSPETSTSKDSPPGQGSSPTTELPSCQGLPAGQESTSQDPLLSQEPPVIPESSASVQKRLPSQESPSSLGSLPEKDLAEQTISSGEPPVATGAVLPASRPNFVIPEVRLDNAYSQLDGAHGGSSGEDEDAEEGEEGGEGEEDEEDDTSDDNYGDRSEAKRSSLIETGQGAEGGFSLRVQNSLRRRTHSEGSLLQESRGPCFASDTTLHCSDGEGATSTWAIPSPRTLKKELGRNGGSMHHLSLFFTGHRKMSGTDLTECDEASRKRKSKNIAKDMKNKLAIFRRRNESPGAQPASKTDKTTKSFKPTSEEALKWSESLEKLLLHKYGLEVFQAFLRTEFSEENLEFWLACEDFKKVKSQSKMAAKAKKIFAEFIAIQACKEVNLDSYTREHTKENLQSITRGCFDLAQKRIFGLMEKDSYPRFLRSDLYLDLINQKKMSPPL
UniProt P16947, sequence (whole entry, looked up): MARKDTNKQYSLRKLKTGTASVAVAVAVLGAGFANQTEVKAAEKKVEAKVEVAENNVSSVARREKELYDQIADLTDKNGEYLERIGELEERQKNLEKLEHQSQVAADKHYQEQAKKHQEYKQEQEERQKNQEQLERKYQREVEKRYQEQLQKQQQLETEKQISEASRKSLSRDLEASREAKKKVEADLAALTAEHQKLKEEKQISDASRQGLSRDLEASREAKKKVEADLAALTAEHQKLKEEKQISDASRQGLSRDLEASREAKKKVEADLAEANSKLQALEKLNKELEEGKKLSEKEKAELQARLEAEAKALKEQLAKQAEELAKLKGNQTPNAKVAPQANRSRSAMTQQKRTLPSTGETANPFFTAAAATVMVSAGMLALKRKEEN
UniProt P02679, sequence (whole entry, unmodified, looked up): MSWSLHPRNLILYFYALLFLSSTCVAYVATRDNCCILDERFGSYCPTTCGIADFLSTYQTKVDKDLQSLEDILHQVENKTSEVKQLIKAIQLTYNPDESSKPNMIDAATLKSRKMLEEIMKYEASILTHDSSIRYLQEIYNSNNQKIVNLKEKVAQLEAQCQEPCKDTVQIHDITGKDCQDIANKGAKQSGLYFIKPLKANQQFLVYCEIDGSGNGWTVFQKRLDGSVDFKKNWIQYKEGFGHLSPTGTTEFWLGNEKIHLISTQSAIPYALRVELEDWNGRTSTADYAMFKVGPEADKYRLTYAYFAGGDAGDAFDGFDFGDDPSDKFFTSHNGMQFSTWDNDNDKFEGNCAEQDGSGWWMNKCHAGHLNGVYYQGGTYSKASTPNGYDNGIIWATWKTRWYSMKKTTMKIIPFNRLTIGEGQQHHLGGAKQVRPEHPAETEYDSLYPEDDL
UniProt O15392, sequence (whole entry, unmodified, looked up): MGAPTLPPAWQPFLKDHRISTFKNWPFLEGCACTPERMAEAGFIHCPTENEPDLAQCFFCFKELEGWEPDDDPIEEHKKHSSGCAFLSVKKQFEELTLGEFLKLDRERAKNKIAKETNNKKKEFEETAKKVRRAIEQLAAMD
UniProt Q00987, sequence (whole entry, looked up): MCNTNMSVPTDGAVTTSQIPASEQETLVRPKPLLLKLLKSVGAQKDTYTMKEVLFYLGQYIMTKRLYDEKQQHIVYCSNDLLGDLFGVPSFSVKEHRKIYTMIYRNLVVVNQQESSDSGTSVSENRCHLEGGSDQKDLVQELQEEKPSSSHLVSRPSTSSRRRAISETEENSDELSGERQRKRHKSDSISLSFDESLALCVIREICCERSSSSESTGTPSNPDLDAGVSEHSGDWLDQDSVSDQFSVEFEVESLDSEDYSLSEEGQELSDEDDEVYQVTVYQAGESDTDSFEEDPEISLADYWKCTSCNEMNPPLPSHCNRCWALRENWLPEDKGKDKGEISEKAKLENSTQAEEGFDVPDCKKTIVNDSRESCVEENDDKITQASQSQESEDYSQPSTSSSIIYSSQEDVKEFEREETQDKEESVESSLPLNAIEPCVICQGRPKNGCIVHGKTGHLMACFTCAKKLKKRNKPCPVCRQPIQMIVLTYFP
UniProt P02675, sequence (whole entry, unmodified, looked up): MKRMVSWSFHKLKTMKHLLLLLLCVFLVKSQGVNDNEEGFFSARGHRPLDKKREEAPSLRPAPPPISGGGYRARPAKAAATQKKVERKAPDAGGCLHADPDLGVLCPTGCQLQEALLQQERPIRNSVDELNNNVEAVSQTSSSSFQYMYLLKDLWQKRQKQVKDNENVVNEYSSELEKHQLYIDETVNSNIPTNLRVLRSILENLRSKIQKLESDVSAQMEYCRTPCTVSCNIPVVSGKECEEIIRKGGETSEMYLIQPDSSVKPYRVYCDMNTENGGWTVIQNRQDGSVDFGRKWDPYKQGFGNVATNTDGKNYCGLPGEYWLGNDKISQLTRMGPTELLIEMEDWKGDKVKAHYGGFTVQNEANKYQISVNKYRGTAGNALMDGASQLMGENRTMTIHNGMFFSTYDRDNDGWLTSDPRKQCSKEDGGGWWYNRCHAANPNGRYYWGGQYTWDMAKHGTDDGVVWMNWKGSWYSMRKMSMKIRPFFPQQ
UniProt P02699, sequence (whole entry, looked up): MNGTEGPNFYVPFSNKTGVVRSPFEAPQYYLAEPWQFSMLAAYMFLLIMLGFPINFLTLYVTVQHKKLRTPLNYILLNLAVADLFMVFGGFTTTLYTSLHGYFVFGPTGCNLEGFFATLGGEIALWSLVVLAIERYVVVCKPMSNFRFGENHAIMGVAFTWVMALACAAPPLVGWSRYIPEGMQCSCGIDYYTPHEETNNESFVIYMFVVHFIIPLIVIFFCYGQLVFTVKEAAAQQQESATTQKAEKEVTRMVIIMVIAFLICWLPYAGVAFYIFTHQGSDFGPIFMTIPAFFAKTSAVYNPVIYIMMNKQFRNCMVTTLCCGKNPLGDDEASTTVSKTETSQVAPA
UniProt Q07741, sequence (whole entry, looked up): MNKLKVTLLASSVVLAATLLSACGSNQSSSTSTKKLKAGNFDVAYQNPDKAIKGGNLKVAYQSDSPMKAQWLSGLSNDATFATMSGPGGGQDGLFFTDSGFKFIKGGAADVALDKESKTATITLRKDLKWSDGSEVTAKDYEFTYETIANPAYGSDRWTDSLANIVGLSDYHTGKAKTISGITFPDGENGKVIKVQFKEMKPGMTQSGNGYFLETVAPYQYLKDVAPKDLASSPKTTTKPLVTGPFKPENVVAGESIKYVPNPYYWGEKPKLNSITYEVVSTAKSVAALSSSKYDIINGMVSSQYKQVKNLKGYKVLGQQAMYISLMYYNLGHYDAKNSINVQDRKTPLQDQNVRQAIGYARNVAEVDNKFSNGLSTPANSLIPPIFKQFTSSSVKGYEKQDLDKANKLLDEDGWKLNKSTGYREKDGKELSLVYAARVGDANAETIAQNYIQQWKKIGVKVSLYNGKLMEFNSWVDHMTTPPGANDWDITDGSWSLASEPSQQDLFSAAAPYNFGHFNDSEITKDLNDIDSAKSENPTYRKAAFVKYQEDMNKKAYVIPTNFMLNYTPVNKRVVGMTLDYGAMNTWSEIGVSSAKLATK
UniProt Q9WYW0, sequence (whole entry, looked up): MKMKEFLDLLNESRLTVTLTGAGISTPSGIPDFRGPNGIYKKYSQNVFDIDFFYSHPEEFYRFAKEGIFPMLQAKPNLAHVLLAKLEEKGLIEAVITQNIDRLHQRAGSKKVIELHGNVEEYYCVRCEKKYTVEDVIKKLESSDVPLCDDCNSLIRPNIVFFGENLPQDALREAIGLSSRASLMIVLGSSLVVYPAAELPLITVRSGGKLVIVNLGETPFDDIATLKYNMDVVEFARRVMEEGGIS

Structure (SMILES)	target	assay	system	conditions	Kd
O=C(Nc1cccc(-c2nn[nH]n2)c1)c1cc(-c2nn[nH]n2)cc(C(F)(F)F)c1	Beta-lactamase CTX-M-27	surface plasmon resonance	–	25 °C	0.292 ± 0.004 µM
O=C(O)CCc1c[nH]c2ccccc12	txtE (Streptomyces scabiei, UniProt C9ZDC6)	binding	–	pH 8	~11 µM and 11 µM
CC(C)C[C@H](NC(=O)CNC(=O)[C@@H](NC(=O)[C@H](CO)NC(=O)[C@H](CCCCN)NC(=O)[C@H](CC(C)C)NC(=O)[C@H](CC(=O)O)NC(=O)[C@H](CCC(=O)O)NC(=O)[C@H](CC(C)C)NC(=O)[C@@H](NC(=O)C1CC(C)(C)N([O])C1(C)C)C(C)C)C(C)C)C(=O)N[C@@H](Cc1ccccc1)C(=O)O (some centres unmarked)	Rhodopsin, photoactivated (Meta II) (RHO, Bos taurus, UniProt P02699)	EPR	rod outer segment membranes	pH 6.8, 296 K, rhodopsin 90 µM	4 µM
CC[C@H](C)[C@H](NC(=O)[C@H](CCCCN)NC(=O)[C@H](CCC(=O)O)NC(=O)[C@H](CCCCN)NC(=O)[C@H](CO)NC(=O)[C@H](CCCCN)NC(=O)[C@H](CCCNC(=N)N)NC(=O)[C@H](Cc1ccccc1)NC(=O)[C@H](Cc1ccccc1)NC(=O)[C@H](CC(=O)O)NC(=O)CNC(=O)[C@H](CC(C)C)NC(=O)[C@@H](N)CC(C)C)C(=O)NCC(=O)N[C@@H](CCCCN)C(=O)N[C@@H](CCC(=O)O)C(=O)N[C@@H](Cc1ccccc1)C(=O)N[C@@H](CCCCN)C(=O)N[C@@H](CCCNC(=N)N)C(=O)N[C@H](C(=O)N[C@H](C(=O)N[C@@H](CCC(N)=O)C(=O)N[C@@H](CCCNC(=N)N)C(=O)N[C@H](C(=O)N[C@@H](CCCCN)C(=O)N[C@@H](CC(=O)O)C(=O)N[C@@H](Cc1ccccc1)C(=O)N[C@@H](CC(C)C)C(=O)N[C@@H](CCCNC(=N)N)C(=O)N[C@@H](CC(N)=O)C(=O)N[C@@H](CC(C)C)C(=O)N[C@H](C(=O)N1CCC[C@H]1C(=O)N[C@@H](CCCNC(=N)N)C(=O)N[C@H](C(=O)N[C@@H](CCC(=O)O)C(=O)N[C@@H](CO)C(=O)O)[C@@H](C)O)C(C)C)[C@@H](C)CC)C(C)C)[C@@H](C)CC	M protein, serotype 49 (emm49, Streptococcus pyogenes serotype M49, UniProt P16947)	binding, surface plasmon resonance	Streptococcus pyogenes, M49	added: immobilized cathelicidin	62.7 µM
CC(=O)N[C@@H](CO)C(=O)N[C@@H](Cc1ccccc1)C(=O)N[C@@H](CCC(=O)O)C(=O)N[C@@H](Cc1ccccc1Cl)C(=O)N1CCC[C@]12C=C[C@@H]1CC[C@@H](C(=O)N3CC[C@@H]4C=C[C@H]5CC[C@@H](C(=O)N[C@H](C(=O)N[C@@H](CCC(=O)O)C(=O)N[C@@H](CC(=O)O)C(=O)N[C@@H](CCC(=O)O)C(=O)N[C@@H](CC(C)C)C(N)=O)[C@@H](C)O)N5C(=O)[C@H]43)N1C2=O	Protein enabled homolog (ENAH, UniProt Q8N8S7)	binding, fluorescence	–	pH 7.3	0.15 µM
CC(=O)N(Cc1ccccc1)[C@@H](C)C(=O)N(C)CC(=O)N(Cc1c[nH]c2cc(Cl)ccc12)[C@@H](C)C(=O)N(C)CC(=O)N(CCC(C)(C)C)[C@@H](C)C(=O)N1CCNCC1	MDM2 (Homo sapiens, UniProt Q00987)	binding, ITC	–	–	1.63 µM
CC(C)[C@H](NC(=O)[C@H](CCC(N)=O)NC(=O)CNC(=O)[C@H](CC(N)=O)NC(=O)[C@H](C)NC(=O)[C@H](Cc1c[nH]cn1)NC(=O)[C@@H](NC(=O)[C@@H](NC(=O)[C@@H](NC(=O)[C@H](CC(N)=O)NC(=O)[C@H](Cc1ccc(O)cc1)NC(=O)[C@H](C)NC(=O)[C@H](CC(N)=O)NC(=O)[C@@H](NC(=O)[C@@H](N)CCC(=O)O)[C@@H](C)O)C(C)C)[C@@H](C)O)[C@@H](C)O)C(=O)N[C@@H](CO)C(=O)N[C@@H](Cc1ccc(O)cc1)C(=O)NCC(=O)N[C@@H](C)C(=O)N[C@@H](CCCNC(=N)N)C(=O)N1CCC[C@H]1C(=O)N[C@H](C(=O)N[C@@H](Cc1ccc(O)cc1)C(=O)N[C@@H](CCCCN)C(=O)N[C@@H](CCCCN)C(=O)N1CCC[C@H]1C(=O)N[C@@H](CO)C(=O)O)[C@@H](C)O	FGA/FGB/FGG, D fragment (Homo sapiens, UniProt P02671+P02675+P02679, del433-453)	isothermal titration calorimetry	–	pH 7.4, 27 °C	0.0772 ± 0.0086 µM
O=C(Nc1cccc(-c2nn[nH]n2)c1)c1cc(-c2ccccc2)cc(C(F)(F)F)c1	Beta-lactamase CTX-M-27	surface plasmon resonance	–	25 °C	40.3 ± 2.7 µM
O=C(CCCN1CCC2(CC1)C(=O)NCN2c1ccccc1)N(Cc1ccsc1)c1ccccc1	PDE6D (Homo sapiens, UniProt O43924)	binding	–	–	1.24 ± 0.106 µM
N=C(N)NCCC[C@H](NC(=O)[C@H](Cc1ccccc1)NC(=O)[C@@H]1CCCN1C(=O)[C@H](CO)NC(=O)[C@H](Cc1ccccc1)NC(=O)CNC(=O)[C@@H]1CCCN1C(=O)[C@@H]1CCCN1C(=O)[C@@H](N)CCCNC(=N)N)C(=O)N[C@@H](CCCCNS(=O)(=O)c1ccc(C2=c3cc4c5c(c3Oc3c2cc2c6c3CCCN6CCC2)CCC[N+]=5CCC4)c(S(=O)(=O)[O-])c1)C(=O)O	Oligopeptide-binding protein OppA (oppA, Lactococcus lactis subsp. lactis, UniProt Q07741)	binding, fluorescence anisotropy	–	pH 6.5, 24 °C, added: dye-labelled peptide	16 ± 1 µM
COC(=O)[C@H](Cc1ccccc1)NC(=O)[C@@H]1CCCN1C(=O)[C@H](Cc1c[nH]cn1)NC(=O)[C@H](C)NC(C)=O	PIN1	binding	–	pH 7.4	0.45 µM
CC(=O)NCCCC[C@H](NC(=O)[C@H](CCCCN)NC(=O)[C@H](Cc1c[nH]cn1)NC(=O)[C@H](CCCNC(=N)N)NC(=O)[C@H](CO)NC(=O)[C@@H](NC(=O)[C@H](CO)NC(=O)[C@H](CCC(N)=O)NC(=O)CNC(=O)[C@H](CCCCN)NC(=O)[C@@H](N)CCCCN)[C@@H](C)O)C(=O)N[C@@H](CC(C)C)C(=O)N[C@@H](CCCCN)C(=O)N[C@@H](Cc1ccccc1)C(=O)N[C@@H](CCCCN)C(=O)N[C@H](C(=O)N[C@@H](CCC(=O)O)C(=O)NCC(=O)O)[C@@H](C)O	NAD-dependent protein deacetylase (cobB, Thermotoga maritima, UniProt Q9WYW0)	acetylated p53 peptide binding, intrinsic tyrosine fluorescence	–	pH 9.2, target 0.4 µM	27.8 µM
CN1C(=O)C2(Cc3ccc(CC45SSC(CO)(C(=O)N4C)N(C)C5=O)cc3)SSC1(CO)C(=O)N2C (racemic)	Histone acetyltransferase p300, CH1 domain (EP300, Homo sapiens, UniProt Q09472)	surface plasmon resonance	–	DTT 500 µM	1.9 µM
COC(=O)[C@H](Cc1ccccc1)NC(=O)[C@@H]1CCCN1C(=O)[C@H](CCC(N)=O)NC(=O)[C@H](C)NC(C)=O	PIN1	binding	–	pH 7.4	62.5 µM
C[C@H](N)C(=O)N[C@@H](CCCNC(=N)N)C(=O)N[C@H](C(=O)N[C@@H](CCCCN)C(=O)N[C@@H](CCC(N)=O)C(=O)N[C@H](C(=O)N[C@@H](C)C(=O)N[C@@H](CCCNC(=N)N)C(=O)N[C@@H](CCCCN)C(=O)N[C@@H](CO)C(=O)N[C@H](C(=O)NCC(=O)O)[C@@H](C)O)[C@@H](C)O)[C@@H](C)OP(=O)(O)O	BIRC5 (Homo sapiens, UniProt O15392, H80R)	binding, ITC	–	pH 6.8	26.3 µM
C[C@@H](O)[C@H](NC(=O)[C@@H]1CCCN1C(=O)[C@H](COP(=O)(O)O)NC(=O)[C@H](Cc1ccc(O)cc1)NC(=O)[C@H](CO)NC(=O)[C@@H]1CCCN1C(=O)[C@H](COP(=O)(O)O)NC(=O)[C@@H](NC(=O)[C@@H]1CCCN1C(=O)[C@H](COP(=O)(O)O)NC(=O)[C@H](Cc1ccc(O)cc1)NC(=O)[C@H](CO)NC(=O)[C@@H]1CCCN1C(=O)[C@@H](N)CO)[C@@H](C)O)C(=O)N[C@@H](COP(=O)(O)O)C(=O)N1CCC[C@H]1C(=O)N[C@@H](CO)C(=O)N[C@@H](Cc1ccc(O)cc1)C(=O)N[C@@H](CO)C(=O)O	Regulation of nuclear pre-mRNA domain-containing protein 1A, CID domain (RPRD1A, Homo sapiens, UniProt Q96P16)	isothermal titration calorimetry	–	pH 7.5, 25 °C	> 1000 µM
C[C@H](NC(=O)[C@@H](N)Cc1ccc(O)cc1)C(=O)NCC(=O)N[C@@H](CO)C(=O)N[C@H](C(=O)N[C@@H](CC(=O)O)C(=O)N[C@@H](CCC(=O)O)C(=O)N[C@@H](CC(N)=O)C(=O)N[C@H](C(=O)N[C@@H](CC(=O)O)C(=O)N[C@@H](CO)C(=O)N[C@@H](CCC(=O)O)C(=O)O)[C@@H](C)O)[C@@H](C)OP(=O)(O)O	Bifunctional polynucleotide phosphatase/kinase, FHA domain (Homo sapiens, UniProt Q96T60)	binding, ITC	–	pH 7.5, 10 °C, PNK FHA domain	10.6 µM
CC(=O)N[C@@H](CCC(N)=O)C(=O)N[C@H]1CSCc2cccc(c2)C[S+](C)CC[C@@H](C(=O)N[C@@H](Cc2ccc(O)cc2)C(=O)N[C@@H](Cc2ccc(O)cc2)C(=O)N[C@@H](CCCCN)C(=O)N[C@H](C(=O)O)C(C)C)NC(=O)[C@H](CC(N)=O)NC(=O)[C@H](C)NC(=O)[C@@H]2CCCN2C1=O (some centres unmarked)	Regulator of G-protein signaling 3, PDZ domain (Rgs3, Mus musculus, UniProt Q9DC04)	fluorescence polarization	–	1 h, pH 7.4, 25 °C, added: FAM-labelled peptide tracer	3.02 µM
NCCCC[C@H](NC(=O)[C@@H](N)CCCCN)C(=O)NCC(=O)NCC(=O)NCCCCCCCCNC(=O)c1ccc(-c2ccccn2)cc1	Calmodulin-1 (CALM1, Homo sapiens, UniProt P0DP23)	quartz crystal microbalance	PBS	25 °C, calcium-free	8.3 ± 0.1 µM
O=C(Nc1cccc(-c2nn[nH]n2)c1)c1cc(-c2cc[nH]c2)cc(C(F)(F)F)c1	Beta-lactamase CTX-M-27	surface plasmon resonance	–	25 °C	2.28 ± 0.06 µM

A few entries again:
Structure (SMILES)	target	assay	system	conditions	Kd
CN1C(=O)C2(Cc3ccc(CC45SSC(CO)(C(=O)N4C)N(C)C5=O)cc3)SSC1(CO)C(=O)N2C (racemic)	Histone acetyltransferase p300, CH1 domain (EP300, Homo sapiens, UniProt Q09472)	surface plasmon resonance	–	DTT 500 µM	1.9 µM
CC(=O)N[C@@H](CCC(N)=O)C(=O)N[C@H]1CSCc2cccc(c2)C[S+](C)CC[C@@H](C(=O)N[C@@H](Cc2ccc(O)cc2)C(=O)N[C@@H](Cc2ccc(O)cc2)C(=O)N[C@@H](CCCCN)C(=O)N[C@H](C(=O)O)C(C)C)NC(=O)[C@H](CC(N)=O)NC(=O)[C@H](C)NC(=O)[C@@H]2CCCN2C1=O (some centres unmarked)	Regulator of G-protein signaling 3, PDZ domain (Rgs3, Mus musculus, UniProt Q9DC04)	fluorescence polarization	–	1 h, pH 7.4, 25 °C, added: FAM-labelled peptide tracer	3.02 µM
O=C(Nc1cccc(-c2nn[nH]n2)c1)c1cc(-c2ccccc2)cc(C(F)(F)F)c1	Beta-lactamase CTX-M-27	surface plasmon resonance	–	25 °C	40.3 ± 2.7 µM
